# Experimental data of several laboratories.
# Each line is one published result; not all experiments were run side by side.
# Organism: Klebsiella pneumoniae
Compound,test,test system,setting,MIC
CC(=O)N[C@@H](CCCCN)C(=O)N[C@@H](CCCCN)C(=O)N[C@@H](CC(C)C)C(=O)N[C@@H](CC(C)C)C(=O)N[C@@H](CCCCN)C(=O)N[C@@H](CC(C)C)C(=O)N[C@@H](C)C(=O)N[C@@H](CCCCN)C(=O)N[C@@H](CCCCN)C(=O)N1CCC[C@H]1C(=O)N[C@@H](CC(C)C)C(=O)N[C@@H](CCCCN)C(=O)N[C@@H](CC(C)C)C(=O)N[C@@H](CC(C)C)C(=O)N[C@@H](CCCCN)C(N)=O,broth microdilution,ATCC 700603,"18 h, 37 °C, compound alone",> 80 µM
CC1=C[C@@H]2CN(C(=O)N2OS(=O)(=O)O)[C@@H]1C(N)=O,,"ATCC 1706, ESBL and NDM",compound alone,> 128 µg/mL
CN(C)[C@@H]1C(O)=C(C(N)=O)C(=O)[C@@]2(O)C(O)=C3C(=O)c4c(O)c(NC(=O)CNC(C)(C)C)nc(Cl)c4C[C@H]3C[C@@H]12.Cl.Cl.Cl,,tet(A)-carrying,,> 32 µg/mL
CC[C@H](C)CCCCC(=O)N[C@@H](CCN)C(=O)N[C@H](C(=O)N[C@@H](CCN)C(=O)N[C@H]1CCNC(=O)[C@H]([C@@H](C)O)NC(=O)[C@H](CCN)NC(=O)[C@H](CCN)NC(=O)[C@H](CC(C)C)NC(=O)[C@@H](CC(C)C)NC(=O)[C@H](CCN)NC1=O)[C@@H](C)O,broth microdilution,"ATCC 43816 ΔacrAB, cation-adjusted MHB",,1 µg/mL
CC[C@H](C)[C@H](NC(=O)[C@H](CC(C)C)NC(=O)[C@H](CCCCN)NC(=O)[C@@H](NC(=O)[C@H](C)NC(=O)[C@H](CCC(=O)O)NC(=O)[C@H](Cc1c[nH]cn1)NC(=O)[C@@H](NC(=O)[C@H](CCCCN)NC(=O)[C@H](CCC(N)=O)NC(=O)[C@H](Cc1ccccc1)NC(=O)[C@@H](NC(=O)[C@H](CCCCN)NC(=O)[C@@H](N)CCCCN)C(C)C)[C@@H](C)CC)[C@@H](C)CC)C(N)=O,CLSI broth microdilution,ATCC 13883,"18 h, 37 °C",128 µM
NCC[C@H](O)C(=O)N[C@@H]1C[C@H](N)[C@@H](O[C@H]2O[C@H](CN)[C@@H](O)[C@H](O)[C@H]2O)[C@H](O)[C@H]1O[C@H]1O[C@H](CO)[C@@H](O)[C@H](N)[C@H]1O,broth microdilution,"parental, KPC-33",,> 128 µg/mL
CC[C@H](C)CCCCC(=O)N[C@@H](CCN)C(=O)N[C@H](C(=O)N[C@@H](CCN)C(=O)N[C@H]1CCNC(=O)[C@H]([C@@H](C)O)NC(=O)[C@H](CCN)NC(=O)[C@H](CCN)NC(=O)[C@H](CC(C)C)NC(=O)[C@@H](CC(C)C)NC(=O)[C@H](CCN)NC1=O)[C@@H](C)O,broth microdilution,BNCC 359393,,> 64 µg/mL
CC[C@H](C)[C@H](NC(=O)CNC(=O)[C@H](CC(=O)O)NC(=O)[C@H](CCCNC(=N)N)NC(=O)[C@@H](NC(=O)[C@H](CC(N)=O)NC(=O)[C@H](CCCNC(=N)N)NC(=O)CNC(=O)[C@@H](NC(=O)[C@H](CCCCN)NC(=O)[C@H](CCC(=O)O)NC(=O)[C@@H](NC(=O)[C@H](CCCCN)NC(=O)[C@H](CCCCN)NC(=O)[C@H](Cc1ccccc1)NC(=O)[C@@H](NC(=O)[C@H](CCCCN)NC(=O)[C@H](Cc1c[nH]c2ccccc12)NC(=O)[C@@H](N)CCCNC(=N)N)[C@@H](C)CC)[C@@H](C)CC)C(C)C)C(C)C)C(=O)N[C@H](C(=O)N[C@@H](CCCCN)C(=O)N[C@@H](C)C(=O)NCC(=O)N1CCC[C@H]1C(=O)N[C@@H](C)C(=O)N[C@H](C(=O)N[C@@H](C)C(=O)N[C@H](C(=O)N[C@H](C(=O)NCC(=O)N[C@@H](CCC(N)=O)C(=O)N[C@@H](C)C(=O)N[C@@H](C)C(=O)N[C@H](C(=O)N[C@H](C(=O)N[C@H](C(=O)N[C@@H](CCCCN)C(N)=O)C(C)C)C(C)C)[C@@H](C)O)C(C)C)C(C)C)C(C)C)[C@@H](C)CC,"broth microdilution, MH medium",NCCP 16054,"16 h, 37 °C, growth inhibition over 99%",2 µM
CC(=O)N[C@@H](CCCCN)C(=O)N[C@@H](CCCCN)C(=O)N[C@@H](CC(C)C)C(=O)N[C@@H](CC(C)C)C(=O)N[C@@H](CCCCN)C(=O)N[C@@H](CC(C)C)C(=O)N[C@@H](CC(C)C)C(=O)N[C@@H](CCCCN)C(=O)N[C@@H](CCCCN)C(=O)N1CCC[C@H]1C(=O)N[C@@H](CC(C)C)C(=O)N[C@@H](CCCCN)C(=O)N[C@@H](CC(C)C)C(=O)N[C@@H](CC(C)C)C(=O)N[C@@H](CCCCN)C(N)=O,broth microdilution,ATCC 700603,"18 h, 37 °C, compound alone",> 80 µM

# Repeated from above:
Compound,test,test system,setting,MIC
CC[C@H](C)CCCCC(=O)N[C@@H](CCN)C(=O)N[C@H](C(=O)N[C@@H](CCN)C(=O)N[C@H]1CCNC(=O)[C@H]([C@@H](C)O)NC(=O)[C@H](CCN)NC(=O)[C@H](CCN)NC(=O)[C@H](CC(C)C)NC(=O)[C@@H](CC(C)C)NC(=O)[C@H](CCN)NC1=O)[C@@H](C)O,broth microdilution,BNCC 359393,,> 64 µg/mL
